Assay results gathered from unrelated publications.
Each numbered part is a random draw from the data of one study; scales do not carry over between parts. Changes are numbered by the printed parent chain.

Set 1
Target: Transcriptional repressor CTCF (CTCF, Homo sapiens, UniProt P49711, residues 1-727, full length assumed)
Chain of UniProt P49711 (whole entry, looked up): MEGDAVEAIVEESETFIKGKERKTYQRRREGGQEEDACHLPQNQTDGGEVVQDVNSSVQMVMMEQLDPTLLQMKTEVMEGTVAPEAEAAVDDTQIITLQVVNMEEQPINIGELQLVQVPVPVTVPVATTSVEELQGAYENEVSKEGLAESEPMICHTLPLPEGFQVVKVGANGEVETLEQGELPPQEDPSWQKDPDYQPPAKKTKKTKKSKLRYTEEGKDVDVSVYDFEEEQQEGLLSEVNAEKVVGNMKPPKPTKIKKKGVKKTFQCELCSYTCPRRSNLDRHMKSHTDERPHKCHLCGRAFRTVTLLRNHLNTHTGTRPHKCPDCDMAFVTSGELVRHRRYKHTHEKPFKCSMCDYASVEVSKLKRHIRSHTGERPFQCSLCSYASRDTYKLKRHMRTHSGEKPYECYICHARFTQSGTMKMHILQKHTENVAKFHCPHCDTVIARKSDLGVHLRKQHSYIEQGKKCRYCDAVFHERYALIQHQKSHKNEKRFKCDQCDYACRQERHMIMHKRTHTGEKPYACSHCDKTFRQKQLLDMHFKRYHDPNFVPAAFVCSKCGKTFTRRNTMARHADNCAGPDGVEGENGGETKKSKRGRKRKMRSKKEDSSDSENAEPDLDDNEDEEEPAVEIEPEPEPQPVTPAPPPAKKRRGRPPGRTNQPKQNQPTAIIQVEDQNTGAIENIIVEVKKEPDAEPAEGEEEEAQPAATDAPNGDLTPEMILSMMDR
Method: protein-binding microarray
Form: double-stranded DNA, one strand shown
Matrix: in vitro
Tested at: not given
Notes: k-mer, scored over probes, only values ≥0.25
Direction: higher = stronger binding
`AGGAAAAT` gave an E-score of 0.271.
With `AATGAAAA` the E-score was 0.287.
For `CTGCGCAC`, the E-score was 0.268.
`GATAACAC` gave an E-score of 0.278.
`ACTGAAAC` gave an E-score of 0.256.
With `TATGTTAA` the E-score was 0.284.
For `CGGCGCGC`, the E-score was 0.317.
`AACTGAAA` has an E-score of 0.282.
With `AGGGGGAT` the E-score was 0.298.
For `GACTAATA`, the E-score was 0.27.
`CTGGCGGC` gave an E-score of 0.281.

Set 2
Target: CCND3, cyclin fold, Cln2 fusion (human)
Method: yeast growth competition, sequencing
Matrix: yeast
Notes: weak parent motif
Reference: not given
Direction: higher = stronger binding
Parent: CDC25A docking peptide (human); PPHRRRLLFACSP; partner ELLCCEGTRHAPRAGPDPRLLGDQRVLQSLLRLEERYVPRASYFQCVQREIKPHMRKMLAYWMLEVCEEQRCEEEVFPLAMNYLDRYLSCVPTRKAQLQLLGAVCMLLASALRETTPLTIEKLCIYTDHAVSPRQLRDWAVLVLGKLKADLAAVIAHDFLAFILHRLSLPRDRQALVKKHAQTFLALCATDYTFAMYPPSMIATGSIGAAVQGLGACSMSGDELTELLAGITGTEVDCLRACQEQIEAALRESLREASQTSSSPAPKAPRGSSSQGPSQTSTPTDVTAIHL
`PWHRRRLLFACSP [P2W]` — result for “normalised enrichment score”: 0.139.
For `PPHRRELLFACSP [R6E]`, “normalised enrichment score” read 0.0981.
`PPHRRRLDFACSP [L8D]` — result for “normalised enrichment score”: 0.0878.
`PPHRRRLLVACSP [F9V]` — result for “normalised enrichment score”: 0.117.
For `PSHRRRLLFACSP [P2S]`, “normalised enrichment score” read 0.105.
For `PPHRRRLLFACSY [P13Y]`, “normalised enrichment score” read 0.177.
`PTHRRRLLFACSP [P2T]`: “normalised enrichment score” 0.19.
`PPHRRRLQFACSP [L8Q]`: “normalised enrichment score” 0.0123.
`PPHRPRLLFACSP [R5P]`: “normalised enrichment score” 0.128.

Set 3
Target: Interferon regulatory factor 3, full length, phosphomimetic (IRF3, Homo sapiens, UniProt Q14653, residues 1-427, S386D/S396D/S398D/S402D/T404D/S405D)
Chain of UniProt Q14653 (whole entry, unmodified, looked up): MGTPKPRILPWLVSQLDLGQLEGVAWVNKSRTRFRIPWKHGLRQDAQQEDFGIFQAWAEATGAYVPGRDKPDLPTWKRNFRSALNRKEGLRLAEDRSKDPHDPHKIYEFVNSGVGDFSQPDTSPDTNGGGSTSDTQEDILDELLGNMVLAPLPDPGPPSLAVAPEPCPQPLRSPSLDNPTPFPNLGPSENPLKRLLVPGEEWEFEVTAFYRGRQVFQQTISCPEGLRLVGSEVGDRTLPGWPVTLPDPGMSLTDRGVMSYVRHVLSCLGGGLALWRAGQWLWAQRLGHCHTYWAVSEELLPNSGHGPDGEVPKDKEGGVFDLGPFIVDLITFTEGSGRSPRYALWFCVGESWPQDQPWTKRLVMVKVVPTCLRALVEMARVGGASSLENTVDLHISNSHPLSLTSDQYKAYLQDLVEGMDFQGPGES
Method: protein-binding microarray
Form: double-stranded DNA, one strand shown
Matrix: in vitro
Tested at: 2540 nM top
Notes: 60-bp whole probe
Added: salmon DNA 0.4 mg/ml
Reference: random background probes
Direction: higher = stronger binding
Constant ends, left off below: GCCTAGCAC … GTCTTGATTCGCTTGACGCTGCTG
`TTAGAGTTCAGTTCCGATTAGTGCTAG` — result for “fitted relative affinity”: 1.81 z-score.
`TACGGACTGGGTTTCGGGACGTGCTAG` — result for “fitted relative affinity”: 1.24 z-score.
`GACGATAACAGTCTCGAGACGTGCTAG` — result for “fitted relative affinity”: -0.115 z-score.
For `TTAGGGTTCCTACTGCTTTAGTGCTAG`, “fitted relative affinity” read 0.98 z-score.
`GACGGTTTCGGCTTTCGGGACGTGCTA`: “fitted relative affinity” 4.14 z-score.
For `TTAGGACTGGGACTGCGTTAGTGCTAG`, “fitted relative affinity” read -1.12 z-score.
`GACGGTTTCGGGAATGGGGACGTGCTA`: “fitted relative affinity” 3.75 z-score.
For `TCATTTATGGTTTTTTTACTGTGCTAG`, “fitted relative affinity” read 1.27 z-score.

Mixed results
`PhoQ, residues 284 288 289 292 302 303 SACGEM` has a fold induction of 1.69 (PhoP, residues 12 14 15 18 19 NQFFI (Escherichia coli, UniProt P23836); Sort-seq, item: YFP reporter; E. coli; PhoQ-PhoP variant library, added: 10 µM Mg2+; reference: high Mg2+ state, higher = stronger signaling).

For quick reference, copied from above (set 2):
`PWHRRRLLFACSP [P2W]` — result for “normalised enrichment score”: 0.139.
For `PPHRRELLFACSP [R6E]`, “normalised enrichment score” read 0.0981.
